Measured values of several laboratories.
Each line is one published result; not all experiments were run side by side. “And” joins repeats or separate records; there may be more than shown.
HTR2C: 5-hydroxytryptamine receptor 2C (HTR2C, Homo sapiens, UniProt P28335)
Chain of UniProt P28335 (whole entry, looked up): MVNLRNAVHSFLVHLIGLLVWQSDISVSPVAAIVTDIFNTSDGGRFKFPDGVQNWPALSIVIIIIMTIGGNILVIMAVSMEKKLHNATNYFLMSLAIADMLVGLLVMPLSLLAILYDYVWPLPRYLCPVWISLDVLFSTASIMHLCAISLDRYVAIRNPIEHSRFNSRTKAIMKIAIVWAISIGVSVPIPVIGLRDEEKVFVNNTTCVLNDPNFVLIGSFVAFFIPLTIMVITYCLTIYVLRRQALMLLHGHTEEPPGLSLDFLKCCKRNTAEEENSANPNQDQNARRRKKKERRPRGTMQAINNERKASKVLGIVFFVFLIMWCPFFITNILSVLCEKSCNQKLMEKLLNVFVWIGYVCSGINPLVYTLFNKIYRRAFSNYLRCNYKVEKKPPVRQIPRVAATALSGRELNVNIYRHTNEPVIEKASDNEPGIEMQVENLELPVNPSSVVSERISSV
ADRA2C: Alpha-2C adrenergic receptor (ADRA2C, Homo sapiens, UniProt P18825)
Chain of UniProt P18825 (whole entry, looked up): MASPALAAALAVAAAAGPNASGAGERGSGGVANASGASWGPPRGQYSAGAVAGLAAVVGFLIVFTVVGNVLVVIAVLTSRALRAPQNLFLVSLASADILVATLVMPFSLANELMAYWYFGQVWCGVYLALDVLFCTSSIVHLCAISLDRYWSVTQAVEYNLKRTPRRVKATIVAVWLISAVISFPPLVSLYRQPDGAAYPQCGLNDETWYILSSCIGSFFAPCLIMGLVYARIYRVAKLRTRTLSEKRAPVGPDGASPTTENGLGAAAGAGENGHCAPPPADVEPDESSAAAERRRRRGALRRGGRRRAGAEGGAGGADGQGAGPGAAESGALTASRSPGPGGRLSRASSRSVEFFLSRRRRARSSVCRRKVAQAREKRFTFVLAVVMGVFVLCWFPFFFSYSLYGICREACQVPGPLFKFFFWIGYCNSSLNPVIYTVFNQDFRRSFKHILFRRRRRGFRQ
OPRD1: Delta-type opioid receptor (OPRD1, Homo sapiens, UniProt P41143)
Chain of UniProt P41143 (whole entry, looked up): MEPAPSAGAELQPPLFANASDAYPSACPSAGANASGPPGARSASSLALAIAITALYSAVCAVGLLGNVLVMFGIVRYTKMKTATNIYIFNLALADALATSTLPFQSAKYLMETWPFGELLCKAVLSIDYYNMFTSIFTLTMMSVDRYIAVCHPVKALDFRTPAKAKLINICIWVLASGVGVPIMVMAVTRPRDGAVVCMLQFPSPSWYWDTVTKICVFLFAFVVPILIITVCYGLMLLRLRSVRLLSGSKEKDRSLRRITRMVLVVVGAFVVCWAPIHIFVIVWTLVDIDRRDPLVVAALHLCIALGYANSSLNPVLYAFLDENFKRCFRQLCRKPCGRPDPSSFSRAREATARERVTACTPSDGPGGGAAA
OSBP: Oxysterol-binding protein 1 (OSBP, Homo sapiens, UniProt P22059)
Chain of UniProt P22059 (whole entry, looked up): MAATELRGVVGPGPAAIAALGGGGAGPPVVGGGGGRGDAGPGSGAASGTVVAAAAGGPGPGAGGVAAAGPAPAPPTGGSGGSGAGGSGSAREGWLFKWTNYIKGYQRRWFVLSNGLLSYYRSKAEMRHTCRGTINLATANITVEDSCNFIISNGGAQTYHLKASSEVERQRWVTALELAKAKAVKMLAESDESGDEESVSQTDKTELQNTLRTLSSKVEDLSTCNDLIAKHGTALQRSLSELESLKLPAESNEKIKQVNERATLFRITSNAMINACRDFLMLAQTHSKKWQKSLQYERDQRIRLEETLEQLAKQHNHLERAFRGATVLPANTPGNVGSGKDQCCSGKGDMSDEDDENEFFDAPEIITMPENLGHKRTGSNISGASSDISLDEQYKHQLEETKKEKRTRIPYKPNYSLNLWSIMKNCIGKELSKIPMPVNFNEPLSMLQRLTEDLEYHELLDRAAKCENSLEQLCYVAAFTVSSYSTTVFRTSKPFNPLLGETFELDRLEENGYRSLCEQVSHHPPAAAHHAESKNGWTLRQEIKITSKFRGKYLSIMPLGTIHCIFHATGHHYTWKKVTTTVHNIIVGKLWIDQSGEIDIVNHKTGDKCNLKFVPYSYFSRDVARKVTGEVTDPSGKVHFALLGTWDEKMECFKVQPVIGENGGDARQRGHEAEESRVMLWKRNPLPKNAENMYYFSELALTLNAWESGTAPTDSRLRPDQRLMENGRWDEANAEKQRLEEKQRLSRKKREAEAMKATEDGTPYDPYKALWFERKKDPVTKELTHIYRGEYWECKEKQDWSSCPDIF
Tspo: Translocator protein (Tspo, Rattus norvegicus, UniProt P16257)
Chain of UniProt P16257 (whole entry, looked up): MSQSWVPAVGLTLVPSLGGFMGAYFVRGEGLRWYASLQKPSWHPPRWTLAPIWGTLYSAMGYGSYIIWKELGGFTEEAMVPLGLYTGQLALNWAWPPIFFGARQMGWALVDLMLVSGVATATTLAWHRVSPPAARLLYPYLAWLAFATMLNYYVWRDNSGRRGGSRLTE
HDAC8: Histone deacetylase 8 (HDAC8, Homo sapiens, UniProt Q9BY41)
Chain of UniProt Q9BY41 (whole entry, looked up): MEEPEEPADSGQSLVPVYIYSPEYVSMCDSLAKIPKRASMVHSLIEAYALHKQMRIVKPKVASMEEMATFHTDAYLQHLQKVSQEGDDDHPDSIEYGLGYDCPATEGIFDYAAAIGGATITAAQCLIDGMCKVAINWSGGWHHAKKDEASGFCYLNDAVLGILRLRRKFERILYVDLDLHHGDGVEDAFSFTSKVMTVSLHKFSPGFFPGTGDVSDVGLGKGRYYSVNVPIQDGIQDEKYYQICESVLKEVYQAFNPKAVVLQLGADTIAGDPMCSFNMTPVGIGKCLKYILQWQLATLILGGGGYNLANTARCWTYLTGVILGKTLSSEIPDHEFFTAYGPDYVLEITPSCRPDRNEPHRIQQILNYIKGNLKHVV
Replicase polyprotein 1ab main protease: Replicase polyprotein 1ab, main protease (Feline coronavirus, UniProt Q98VG9)
AKT1: RAC-alpha serine/threonine-protein kinase (AKT1, Homo sapiens, UniProt P31749)
Chain of UniProt P31749 (whole entry, looked up): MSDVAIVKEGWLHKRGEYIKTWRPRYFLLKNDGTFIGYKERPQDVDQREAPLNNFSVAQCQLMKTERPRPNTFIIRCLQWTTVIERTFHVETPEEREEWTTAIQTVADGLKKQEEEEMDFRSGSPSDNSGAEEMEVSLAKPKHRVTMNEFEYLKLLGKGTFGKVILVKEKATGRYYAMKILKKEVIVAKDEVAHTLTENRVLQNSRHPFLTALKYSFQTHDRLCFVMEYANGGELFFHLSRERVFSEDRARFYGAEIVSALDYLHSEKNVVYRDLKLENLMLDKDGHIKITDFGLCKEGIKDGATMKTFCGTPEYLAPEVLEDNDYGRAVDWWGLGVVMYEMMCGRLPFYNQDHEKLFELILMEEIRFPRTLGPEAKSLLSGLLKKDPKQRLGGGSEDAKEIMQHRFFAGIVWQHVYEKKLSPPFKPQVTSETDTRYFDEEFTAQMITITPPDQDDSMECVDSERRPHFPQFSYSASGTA
ADRA2B: Alpha-2B adrenergic receptor (ADRA2B, Homo sapiens, UniProt P18089)
Chain of UniProt Q5BJF2 (whole entry, looked up): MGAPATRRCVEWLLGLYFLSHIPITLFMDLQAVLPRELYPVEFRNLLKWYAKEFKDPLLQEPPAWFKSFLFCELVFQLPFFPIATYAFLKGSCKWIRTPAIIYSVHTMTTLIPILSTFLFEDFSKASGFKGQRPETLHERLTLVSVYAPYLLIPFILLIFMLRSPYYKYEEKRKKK
Chain of UniProt P18089 (whole entry, looked up): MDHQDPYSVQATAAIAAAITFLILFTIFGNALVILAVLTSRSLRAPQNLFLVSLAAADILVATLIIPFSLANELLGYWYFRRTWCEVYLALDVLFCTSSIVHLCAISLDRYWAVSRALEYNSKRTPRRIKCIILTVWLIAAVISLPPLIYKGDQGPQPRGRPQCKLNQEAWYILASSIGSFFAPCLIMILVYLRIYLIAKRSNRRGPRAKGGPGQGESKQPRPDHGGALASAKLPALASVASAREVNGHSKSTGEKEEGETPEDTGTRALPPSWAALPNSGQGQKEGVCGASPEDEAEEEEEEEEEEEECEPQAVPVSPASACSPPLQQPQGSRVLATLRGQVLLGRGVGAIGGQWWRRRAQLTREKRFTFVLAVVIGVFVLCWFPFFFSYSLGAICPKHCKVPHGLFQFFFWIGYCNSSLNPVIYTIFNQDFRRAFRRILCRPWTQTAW
Chain of UniProt P35348 (whole entry, unmodified, looked up): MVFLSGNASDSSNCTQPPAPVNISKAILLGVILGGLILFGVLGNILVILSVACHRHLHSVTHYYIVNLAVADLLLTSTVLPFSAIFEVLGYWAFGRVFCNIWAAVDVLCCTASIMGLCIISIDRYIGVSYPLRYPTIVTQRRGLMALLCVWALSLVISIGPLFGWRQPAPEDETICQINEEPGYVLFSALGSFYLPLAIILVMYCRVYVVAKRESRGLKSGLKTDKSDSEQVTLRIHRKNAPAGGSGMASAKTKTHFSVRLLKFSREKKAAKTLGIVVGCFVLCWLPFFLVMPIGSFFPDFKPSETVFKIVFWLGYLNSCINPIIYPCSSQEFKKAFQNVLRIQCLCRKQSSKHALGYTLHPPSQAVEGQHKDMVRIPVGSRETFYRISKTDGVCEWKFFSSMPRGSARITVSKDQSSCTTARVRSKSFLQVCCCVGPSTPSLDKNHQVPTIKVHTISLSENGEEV
Chain of UniProt Q14973 (whole entry, looked up): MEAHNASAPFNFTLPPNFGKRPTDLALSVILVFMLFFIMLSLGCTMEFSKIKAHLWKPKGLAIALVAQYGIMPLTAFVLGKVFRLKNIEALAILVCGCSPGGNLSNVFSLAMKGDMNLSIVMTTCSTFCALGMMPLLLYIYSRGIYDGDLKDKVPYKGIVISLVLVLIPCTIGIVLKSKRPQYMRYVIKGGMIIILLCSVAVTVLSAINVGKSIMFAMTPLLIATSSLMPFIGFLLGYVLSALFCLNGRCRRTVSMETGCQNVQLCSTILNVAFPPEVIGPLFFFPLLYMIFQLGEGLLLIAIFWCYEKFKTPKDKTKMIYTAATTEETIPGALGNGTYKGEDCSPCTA
Chain of UniProt P00915 (whole entry, looked up): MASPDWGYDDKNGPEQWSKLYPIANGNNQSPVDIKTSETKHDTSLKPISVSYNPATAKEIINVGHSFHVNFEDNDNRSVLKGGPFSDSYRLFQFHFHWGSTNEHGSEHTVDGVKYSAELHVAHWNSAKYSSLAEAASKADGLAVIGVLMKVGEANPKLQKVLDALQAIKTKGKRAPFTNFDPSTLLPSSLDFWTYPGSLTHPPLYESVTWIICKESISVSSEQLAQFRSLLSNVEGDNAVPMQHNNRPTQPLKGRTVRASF

Compound | target | read-out | action | technique | setting | Ki
C#CCN(CCCN1CCN(C2CCCCC2)CC1)CC(=O)Nc1ccc(C(=O)c2ccccc2)cc1 | Sigma intracellular receptor 2 (TMEM97, Homo sapiens, UniProt Q5BJF2) | ligand displacement | – | radioligand | cell membranes | 2 nM and < 5 nM and 2.11 nM
N#C[C@@]12C[C@@H]1[C@@H](n1cnc3c(NCc4cccc(Cl)c4)nc(I)nc31)[C@H](O)[C@@H]2O | HTR2C | ligand displacement | – | radioligand | – | 39.1 nM
OC[C@@]12C[C@@H]1[C@@H](n1cnc3c(NC(C4CCCC4)C4CCCC4)nc(Cl)cc31)[C@H](O)[C@@H]2O | HTR2C | ligand displacement | – | radioligand | – | 1270 nM
Cc1cc(Oc2ncccc2CN2CCN(c3ccccc3C)CC2)ccc1-c1c(C)c(=O)[nH]c(=O)n1C | ADRA2C | ligand displacement | – | radioligand | – | 10.4 nM and ~11 nM
CNC(=O)[C@@]12C[C@@H]1[C@@H](n1cnc3c(NCc4cccc(Cl)c4)nc(C#Cc4ccccc4Cl)nc31)[C@H](O)[C@@H]2O | OPRD1 | ligand displacement | – | radioligand | – | > 10000 nM
COc1ccccc1C(=O)CC(SCc1ccc(Cl)cc1)C(=O)O (stereo not drawn) | OSBP | ligand displacement | – | FP | – | 330000 nM
CNc1nc(C#Cc2ccc(Cl)s2)nc2c1ncn2[C@H]1[C@H](O)[C@H](O)[C@]2(C(=O)OC(C)C)C[C@H]12 | Tspo | ligand displacement | – | radioligand | – | > 10000 nM
O=C(NO)c1cccc(OS(=O)(=O)Oc2ccc3c(c2)OCO3)c1 | HDAC8 | enzyme activity | inhibitor | fluorescence | – | 60 nM
Cc1cc(OCCCS(C)(=O)=O)cc(C)c1-c1cccc(COc2ccc3c(c2)OC[C@H]3CC(=O)O)c1 | Hepatic sodium/bile acid cotransporter (SLC10A1, Homo sapiens, UniProt Q14973) | transporter uptake | inhibitor | – | – | 7770 nM
Cc1ccc2oc(=O)cc(NCCO)c2c1 | Alpha-1A adrenergic receptor (ADRA1A, Homo sapiens, UniProt P35348) | ligand displacement in cells | – | – | – | 417000 nM
CCOc1ccc(-c2cc(C(=O)O)c(-c3ccc(Cl)cc3)o2)cc1 | OSBP | ligand displacement | – | FP | – | > 100000 nM
O=C(NO)c1cncc(OS(=O)(=O)Oc2ccc(C(F)(F)F)cc2)c1 | Histone deacetylase 5 (HDAC5, Homo sapiens, UniProt Q9UQL6) | enzyme activity | inhibitor | fluorescence | – | 1970 nM
CNC(=O)[C@H]1O[C@@H](n2cnc3c(NC)nc(C#Cc4ccc(Cl)s4)nc32)[C@H](O)[C@@H]1O | Tspo | ligand displacement | – | radioligand | – | > 10000 nM
CCOc1cccc(C(=O)CC(SCc2ccc(Cl)cc2)C(=O)O)c1 (stereo not drawn) | OSBP | ligand displacement | – | FP | – | 116000 nM
O=C(NO)c1cccc(OS(=O)(=O)Oc2ccc3ccccc3c2)c1 | HDAC8 | enzyme activity | inhibitor | fluorescence | – | 55 nM
O=C1C(=O)N(Cc2ccc(Cc3ccc(CN4C(=O)C(=O)c5ccccc54)cc3)cc2)c2ccccc21 | Replicase polyprotein 1ab main protease | enzyme activity | inhibitor | fluorescence | – | 5860 nM
CCOc1ccc(C(=O)CC(SCc2ccc(Cl)cc2)C(=O)O)cc1OCC (stereo not drawn) | AKT1 | ligand displacement | – | FP | – | 250000 nM
Cc1cc(Oc2ncccc2CN2CCN(c3ccccc3Br)CC2)ccc1-c1c(C)c(=O)[nH]c(=O)n1C | ADRA2C | ligand displacement | – | radioligand | – | 19.5 nM
Cc1cc(C(C)(C)C)ccc1OS(=O)(=O)Oc1cccc(C(=O)NO)c1 | HDAC8 | enzyme activity | inhibitor | fluorescence | – | 1480 nM
CC/C=C\C[C@H](O)/C=C/C=C\C/C=C\C=C\[C@@H](O)C/C=C\CCC(=O)O | Prostaglandin E2 receptor EP4 subtype (PTGER4, Homo sapiens, UniProt P35408) | ligand displacement | – | radioligand | cell membranes | 1300 nM

Compound | target | read-out | action | technique | setting | Ki
COc1ccccc1N1CCN(Cc2cccnc2Oc2ccc(-c3c(C)c(=O)[nH]c(=O)n3C)c(C)c2)CC1 | ADRA2C | ligand displacement | – | radioligand | – | ~11 nM and 10.6 nM
CNC(=O)[C@@]12C[C@@H]1[C@@H](n1ccc3c(NC)ncnc31)[C@H](O)[C@@H]2O | OPRD1 | ligand displacement | – | radioligand | – | > 10000 nM
C#CCOc1cccc(C(=O)CC(SCc2cccc(Br)c2)C(=O)O)c1 (stereo not drawn) | OSBP | ligand displacement | – | FP | – | 117000 nM
O=C(NO)c1cncc(OS(=O)(=O)Oc2ccc(-n3ccnc3)cc2)c1 | Protein deacetylase HDAC6 (HDAC6, Homo sapiens, UniProt Q9UBN7) | enzyme activity | inhibitor | fluorescence | – | 28 nM
Cc1cc(Oc2ncccc2CN2CCN(c3ccccc3C(F)(F)F)CC2)ccc1-c1c(C)c(=O)[nH]c(=O)n1C | ADRA2B | ligand displacement | – | radioligand | – | 107 nM
O=C1CCc2ccccc2O1 | Carbonic anhydrase 1 (CA1, Homo sapiens, UniProt P00915) | enzyme activity | inhibitor | stopped-flow | – | 40400 nM
CCOc1cccc(C(=O)CC(SCc2cccc(Br)c2)C(=O)O)c1 (stereo not drawn) | OSBP | ligand displacement | – | FP | – | 107000 nM
C[C@@H]1O[C@@H](Oc2cc(O)c3c(=O)c(O)c(-c4ccc(O)c(O)c4)oc3c2)[C@H](O)[C@H](O)[C@H]1O | Replicase polyprotein 1ab main protease | enzyme activity | inhibitor | fluorescence | – | 45200 nM
O=C(NO)c1cc(F)cc(OS(=O)(=O)Oc2ccc(C(F)(F)F)cc2)c1 | HDAC8 | enzyme activity | inhibitor | fluorescence | – | 2050 nM
Cc1cc(Oc2ncccc2CN2CCN(c3cccc(C)c3C)CC2)ccc1-c1c(C)c(=O)[nH]c(=O)n1C | ADRA2C | ligand displacement | – | radioligand | – | 6.1 nM and 6 nM
O=C(/C=C/c1cccc(OS(=O)(=O)Oc2ccccc2)c1)NO | HDAC8 | enzyme activity | inhibitor | fluorescence | – | 1800 nM
Cc1cc(Oc2ncccc2CN2CCN(c3ccc([N+](=O)[O-])cc3C(F)(F)F)CC2)ccc1-c1c(C)c(=O)[nH]c(=O)n1C | ADRA2B | ligand displacement | – | radioligand | – | 1310 nM
COc1cccc(C(=O)CC(SCc2ccc(Cl)cc2)C(=O)O)c1 (stereo not drawn) | AKT1 | ligand displacement | – | FP | – | 141000 nM
Cc1ccc2[nH]c(=O)c(CNC3CCCCC3)cc2c1 | Alpha-1A adrenergic receptor (ADRA1A, Homo sapiens, UniProt P35348, I178V) | ligand displacement in cells | – | flow cytometry | – | 513 nM
Cc1cc(Oc2ncccc2CN2CCN(Cc3ccc(F)cc3)CC2)ccc1-c1c(C)c(=O)[nH]c(=O)n1C | ADRA2B | ligand displacement | – | radioligand | – | 293 nM
CCOc1ccccc1C(=O)CC(SCc1ccc(Cl)cc1)C(=O)O (stereo not drawn) | OSBP | ligand displacement | – | FP | – | 135000 nM
O=C(NO)c1cccc(OS(=O)(=O)Oc2ccc(Oc3ccccc3)cc2)c1 | HDAC8 | enzyme activity | inhibitor | fluorescence | – | 1040 nM
N#CC[C@@]12C[C@@H]1[C@@H](n1cnc3c(NCCCCCCc4ccccc4)nc(I)nc31)[C@H](O)[C@@H]2O | Sodium-dependent serotonin transporter (SLC6A4, Homo sapiens, UniProt P31645) | ligand displacement | – | radioligand | cell membranes | 2930 nM
N#C[C@@]12C[C@@H]1[C@@H](n1cnc3c(N[C@@H](C4CCC4)C4CC4)nc(I)nc31)[C@H](O)[C@@H]2O | HTR2C | ligand displacement | – | radioligand | – | 68 nM

Excerpt of the above:
Compound | target | read-out | action | technique | setting | Ki
N#C[C@@]12C[C@@H]1[C@@H](n1cnc3c(N[C@@H](C4CCC4)C4CC4)nc(I)nc31)[C@H](O)[C@@H]2O | HTR2C | ligand displacement | – | radioligand | – | 68 nM
CCOc1cccc(C(=O)CC(SCc2cccc(Br)c2)C(=O)O)c1 (stereo not drawn) | OSBP | ligand displacement | – | FP | – | 107000 nM
CNC(=O)[C@@]12C[C@@H]1[C@@H](n1ccc3c(NC)ncnc31)[C@H](O)[C@@H]2O | OPRD1 | ligand displacement | – | radioligand | – | > 10000 nM
Cc1cc(Oc2ncccc2CN2CCN(c3ccccc3Br)CC2)ccc1-c1c(C)c(=O)[nH]c(=O)n1C | ADRA2C | ligand displacement | – | radioligand | – | 19.5 nM
O=C1C(=O)N(Cc2ccc(Cc3ccc(CN4C(=O)C(=O)c5ccccc54)cc3)cc2)c2ccccc21 | Replicase polyprotein 1ab main protease | enzyme activity | inhibitor | fluorescence | – | 5860 nM
O=C(NO)c1cc(F)cc(OS(=O)(=O)Oc2ccc(C(F)(F)F)cc2)c1 | HDAC8 | enzyme activity | inhibitor | fluorescence | – | 2050 nM
